Results from different studies.
Parts stem from different laboratories: compare values within a part only. Positions count from the first letter of the parent shown.

Sample 1
Target: CEBPE, bZIP domain (human)
Technique: DHFR protein complementation
Matrix: yeast
Notes: single substitutions, most at no-binding floor
Reference: wild-type JUN-FOS pair
Direction: higher = stronger binding
Endpoint: binding fitness
Starting sequence: JUN, bZIP domain (human); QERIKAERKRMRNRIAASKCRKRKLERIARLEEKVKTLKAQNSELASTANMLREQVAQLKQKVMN; partner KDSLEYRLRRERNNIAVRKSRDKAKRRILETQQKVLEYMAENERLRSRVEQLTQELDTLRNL
K39Y: -1.35 natural log
T37I: -1.11 natural log
M51K: -0.961 natural log
E44M: -1.25 natural log
Q55P: -1.53 natural log
E54L: -1.31 natural log
I28A: -1.24 natural log
L31C: -1.34 natural log

Sample 2
Target: CCNE1, cyclin fold, Cln2 fusion (human)
Technique: yeast growth competition, sequencing
Matrix: yeast
Notes: strong parent motif
Reference: not given
Direction: higher = stronger binding
Endpoint: normalised enrichment score
Starting sequence: CDC25A docking peptide (human); PPHRRRLLFACSP
P1W: 0.955
P13R: 0.681
C11K: 0.115
P2V: 0.944
P1F: 0.604
P1Q: 1.21
L7F: 0.768
A10I: 0.88

Sample 3
Target: Sal-like protein 4, full length isoform B (SALL4, Homo sapiens, UniProt Q9UJQ4-2, residues 1-616)
Technique: universal PBM
Form: double-stranded DNA, one strand shown
Matrix: in vitro
Tested at: not given
Notes: 8-mer, flanks averaged, mean of replicates
Direction: higher = stronger binding
Endpoint: E-score
Residues (chain): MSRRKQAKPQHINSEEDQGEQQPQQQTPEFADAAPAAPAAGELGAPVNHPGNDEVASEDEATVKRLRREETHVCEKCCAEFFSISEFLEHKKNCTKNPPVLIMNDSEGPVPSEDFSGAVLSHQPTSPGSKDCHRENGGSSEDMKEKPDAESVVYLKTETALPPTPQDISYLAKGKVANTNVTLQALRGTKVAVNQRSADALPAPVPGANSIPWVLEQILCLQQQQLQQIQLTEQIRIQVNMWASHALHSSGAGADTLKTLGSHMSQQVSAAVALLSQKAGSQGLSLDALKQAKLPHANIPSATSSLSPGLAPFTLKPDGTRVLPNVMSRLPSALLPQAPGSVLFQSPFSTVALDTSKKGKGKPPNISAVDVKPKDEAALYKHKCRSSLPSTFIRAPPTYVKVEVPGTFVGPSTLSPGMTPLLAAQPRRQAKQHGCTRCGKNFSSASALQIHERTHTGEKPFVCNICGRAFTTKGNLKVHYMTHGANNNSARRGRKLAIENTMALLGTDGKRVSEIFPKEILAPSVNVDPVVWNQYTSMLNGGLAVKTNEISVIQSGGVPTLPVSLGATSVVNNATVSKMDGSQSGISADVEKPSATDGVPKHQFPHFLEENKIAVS
AACCCATA: 0.263
ACTTGGTA: 0.168
AGAACCGG: -0.244
TAGGCTAA: -0.0699
GACCGAAA: -0.00839
CACTGGGC: -0.266
CATAGGGC: -0.189
CCGCGTAG: -0.152

Mixed results
PhoQ, residues 284 288 289 292 302 303 SLSVQF
fold induction (PhoP, residues 12 14 15 18 19 AWHSL (Escherichia coli, UniProt P23836); Sort-seq, item: YFP reporter; E. coli; PhoQ-PhoP variant library, with: 10 µM Mg2+; reference: high Mg2+ state, higher = stronger signaling): 4.44

A few entries again (sample 1):
M51K: -0.961 natural log
E54L: -1.31 natural log
